Measured values from different studies.
Every numbered part comes from another study and shows a few of its results, in no order. “And” joins repeats or separate records; there may be more than shown.
Sequence of UniProt P21802 (whole entry, looked up): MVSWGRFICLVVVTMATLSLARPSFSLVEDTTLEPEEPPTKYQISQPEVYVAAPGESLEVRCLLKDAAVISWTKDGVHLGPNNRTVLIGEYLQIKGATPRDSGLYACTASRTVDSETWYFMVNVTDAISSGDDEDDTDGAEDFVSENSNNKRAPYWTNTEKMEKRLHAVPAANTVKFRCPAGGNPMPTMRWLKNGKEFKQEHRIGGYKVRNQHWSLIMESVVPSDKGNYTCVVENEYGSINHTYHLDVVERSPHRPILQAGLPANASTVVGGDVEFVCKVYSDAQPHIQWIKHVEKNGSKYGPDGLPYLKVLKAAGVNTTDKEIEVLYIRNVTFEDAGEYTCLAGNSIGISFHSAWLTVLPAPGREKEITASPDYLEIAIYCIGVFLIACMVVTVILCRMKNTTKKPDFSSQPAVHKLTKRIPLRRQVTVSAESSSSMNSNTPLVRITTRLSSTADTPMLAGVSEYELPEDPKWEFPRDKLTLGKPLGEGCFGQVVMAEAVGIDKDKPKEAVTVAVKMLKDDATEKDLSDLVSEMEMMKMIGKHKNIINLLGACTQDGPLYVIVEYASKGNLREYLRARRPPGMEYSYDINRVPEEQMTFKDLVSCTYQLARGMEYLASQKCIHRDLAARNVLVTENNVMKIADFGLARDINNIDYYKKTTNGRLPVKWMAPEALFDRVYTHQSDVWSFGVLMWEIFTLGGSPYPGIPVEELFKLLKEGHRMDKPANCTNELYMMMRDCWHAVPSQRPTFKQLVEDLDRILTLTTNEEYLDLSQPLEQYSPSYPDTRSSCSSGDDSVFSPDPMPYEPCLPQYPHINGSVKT
Sequence of UniProt Q13153 (whole entry, looked up): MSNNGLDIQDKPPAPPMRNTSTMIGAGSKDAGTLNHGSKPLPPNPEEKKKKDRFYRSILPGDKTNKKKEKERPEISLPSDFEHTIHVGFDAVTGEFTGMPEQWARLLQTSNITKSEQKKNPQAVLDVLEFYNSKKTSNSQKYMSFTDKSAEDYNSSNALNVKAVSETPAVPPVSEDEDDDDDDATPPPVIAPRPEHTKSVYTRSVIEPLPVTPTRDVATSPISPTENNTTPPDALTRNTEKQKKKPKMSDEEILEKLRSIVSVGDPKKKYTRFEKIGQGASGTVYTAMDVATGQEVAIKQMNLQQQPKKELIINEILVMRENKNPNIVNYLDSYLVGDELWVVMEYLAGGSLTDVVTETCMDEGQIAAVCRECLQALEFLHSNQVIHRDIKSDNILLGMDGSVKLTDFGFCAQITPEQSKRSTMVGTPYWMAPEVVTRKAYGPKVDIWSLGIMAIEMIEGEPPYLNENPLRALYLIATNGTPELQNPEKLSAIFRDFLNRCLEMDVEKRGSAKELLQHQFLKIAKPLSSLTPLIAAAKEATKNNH
Sequence of UniProt Q96PY6 (whole entry, looked up): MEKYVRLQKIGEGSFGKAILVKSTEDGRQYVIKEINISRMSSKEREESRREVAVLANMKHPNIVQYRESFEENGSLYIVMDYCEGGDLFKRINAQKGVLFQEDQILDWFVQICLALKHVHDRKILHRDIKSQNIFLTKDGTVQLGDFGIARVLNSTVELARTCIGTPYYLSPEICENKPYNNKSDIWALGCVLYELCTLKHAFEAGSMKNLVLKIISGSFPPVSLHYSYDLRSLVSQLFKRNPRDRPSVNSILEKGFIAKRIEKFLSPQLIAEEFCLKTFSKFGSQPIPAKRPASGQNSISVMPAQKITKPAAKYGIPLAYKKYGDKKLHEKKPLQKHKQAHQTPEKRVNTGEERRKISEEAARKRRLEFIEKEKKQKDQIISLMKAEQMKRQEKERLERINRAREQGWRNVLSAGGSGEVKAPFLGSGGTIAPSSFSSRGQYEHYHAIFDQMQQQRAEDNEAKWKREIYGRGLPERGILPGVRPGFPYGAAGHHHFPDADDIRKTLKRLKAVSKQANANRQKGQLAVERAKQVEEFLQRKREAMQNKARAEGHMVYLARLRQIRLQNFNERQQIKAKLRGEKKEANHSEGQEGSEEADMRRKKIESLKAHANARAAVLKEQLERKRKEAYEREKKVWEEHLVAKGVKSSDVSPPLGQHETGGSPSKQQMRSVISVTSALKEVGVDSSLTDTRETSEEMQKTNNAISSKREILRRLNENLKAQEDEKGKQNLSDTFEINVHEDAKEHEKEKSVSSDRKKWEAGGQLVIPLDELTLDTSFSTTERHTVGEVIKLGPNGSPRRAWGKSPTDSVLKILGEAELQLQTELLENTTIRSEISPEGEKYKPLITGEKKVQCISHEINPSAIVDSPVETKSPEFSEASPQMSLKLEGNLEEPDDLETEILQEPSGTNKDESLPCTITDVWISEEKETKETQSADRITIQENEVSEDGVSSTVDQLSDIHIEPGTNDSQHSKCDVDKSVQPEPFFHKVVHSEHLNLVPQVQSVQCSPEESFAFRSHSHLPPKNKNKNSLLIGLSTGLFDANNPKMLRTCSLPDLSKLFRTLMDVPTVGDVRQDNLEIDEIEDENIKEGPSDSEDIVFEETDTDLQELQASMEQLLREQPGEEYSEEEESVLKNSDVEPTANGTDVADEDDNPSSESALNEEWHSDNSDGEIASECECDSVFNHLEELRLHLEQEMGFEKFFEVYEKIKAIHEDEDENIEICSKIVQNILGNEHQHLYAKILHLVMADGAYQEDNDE
Sequence of UniProt O43318 (whole entry, looked up): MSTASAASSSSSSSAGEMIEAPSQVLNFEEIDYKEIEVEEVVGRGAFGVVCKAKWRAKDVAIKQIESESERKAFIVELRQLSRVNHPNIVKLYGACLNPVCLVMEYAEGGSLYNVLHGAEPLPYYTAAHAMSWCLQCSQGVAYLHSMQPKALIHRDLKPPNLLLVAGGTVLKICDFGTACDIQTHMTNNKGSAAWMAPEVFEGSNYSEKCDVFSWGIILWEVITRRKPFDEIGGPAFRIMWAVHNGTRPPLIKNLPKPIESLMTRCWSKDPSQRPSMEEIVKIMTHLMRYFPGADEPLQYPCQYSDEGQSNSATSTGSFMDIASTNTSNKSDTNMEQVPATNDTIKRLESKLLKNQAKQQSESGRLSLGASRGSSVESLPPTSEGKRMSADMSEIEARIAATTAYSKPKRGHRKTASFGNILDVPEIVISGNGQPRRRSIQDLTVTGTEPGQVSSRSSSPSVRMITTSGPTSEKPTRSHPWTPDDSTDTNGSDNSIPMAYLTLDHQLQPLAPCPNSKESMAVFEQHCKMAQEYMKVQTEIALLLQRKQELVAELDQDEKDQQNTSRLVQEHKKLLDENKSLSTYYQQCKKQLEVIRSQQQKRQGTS
Sequence of UniProt Q9P0L2 (whole entry, looked up): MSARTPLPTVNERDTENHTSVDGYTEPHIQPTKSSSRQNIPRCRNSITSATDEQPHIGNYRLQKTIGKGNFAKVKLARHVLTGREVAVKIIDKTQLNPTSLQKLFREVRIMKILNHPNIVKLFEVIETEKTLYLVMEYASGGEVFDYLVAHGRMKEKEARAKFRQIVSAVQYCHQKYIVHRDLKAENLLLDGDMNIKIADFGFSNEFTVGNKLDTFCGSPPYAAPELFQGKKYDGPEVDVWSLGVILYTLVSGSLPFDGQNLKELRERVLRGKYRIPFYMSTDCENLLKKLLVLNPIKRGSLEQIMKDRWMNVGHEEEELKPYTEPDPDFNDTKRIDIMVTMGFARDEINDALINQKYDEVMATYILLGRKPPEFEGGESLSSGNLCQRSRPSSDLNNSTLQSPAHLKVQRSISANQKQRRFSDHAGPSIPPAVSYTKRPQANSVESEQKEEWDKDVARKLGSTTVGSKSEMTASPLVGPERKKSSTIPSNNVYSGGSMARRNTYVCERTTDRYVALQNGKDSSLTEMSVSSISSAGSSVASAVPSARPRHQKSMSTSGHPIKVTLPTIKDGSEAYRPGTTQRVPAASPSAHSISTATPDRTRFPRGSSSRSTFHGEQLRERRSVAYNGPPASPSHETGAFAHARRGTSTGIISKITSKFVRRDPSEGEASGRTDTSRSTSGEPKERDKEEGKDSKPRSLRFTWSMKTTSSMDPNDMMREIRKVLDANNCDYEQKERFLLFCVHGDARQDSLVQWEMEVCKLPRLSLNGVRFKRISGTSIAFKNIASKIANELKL

Set 1
Target: Aurora kinase B (AURKB, Homo sapiens, UniProt Q96GD4)
Sequence of UniProt Q96GD4 (whole entry, looked up): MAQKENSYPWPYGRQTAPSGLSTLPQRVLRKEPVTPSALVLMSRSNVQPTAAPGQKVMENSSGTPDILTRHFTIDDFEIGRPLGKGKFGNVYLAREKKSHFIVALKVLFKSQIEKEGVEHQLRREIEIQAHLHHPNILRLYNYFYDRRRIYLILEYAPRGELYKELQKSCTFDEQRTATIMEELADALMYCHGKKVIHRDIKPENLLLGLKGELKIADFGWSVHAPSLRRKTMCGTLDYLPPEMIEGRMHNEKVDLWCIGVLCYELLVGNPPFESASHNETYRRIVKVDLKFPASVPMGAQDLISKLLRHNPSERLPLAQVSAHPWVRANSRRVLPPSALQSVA
Read-out: enzyme activity
Mode: inhibitor
Tested at: 0.5 µM
Relative to: control
N#Cc1cnc2cnc(NCc3cccnc3)cc2c1Nc1ccc(F)c(Cl)c1 gave a remaining activity of 90.1%.
With O=C1NC(=O)c2c1c1c3ccccc3[nH]c1c1[nH]c3cc(Br)ccc3c21 the remaining activity was 44.3%.
The remaining activity of COc1cccc(-c2cc(=O)c3ccccc3o2)c1N is reported as 102%.
The remaining activity of Oc1cccc(-c2nc(N3CCOCC3)c3oc4ncccc4c3n2)c1 is reported as 99.4%.
O=C1Nc2ccccc2/C1=C\c1c(Cl)[nH]c2ccccc12 gave a remaining activity of 97.9%.
The remaining activity of O=C(c1cc2cc(O)ccc2[nH]1)c1cc2cc(O)ccc2[nH]1 is reported as 24.2%.
For CCCCc1c(-c2ccc(OC)cc2)[nH]c2nccnc12, the remaining activity was 64.5%.
For O=C1NC(=O)c2c1c1c3ccccc3[nH]c1n1cncc21, the remaining activity was 25.2%.
With O=Nc1c(-c2c(O)[nH]c3cc(Br)ccc23)[nH]c2ccccc12 the remaining activity was 39.1%.
O=C1Nc2ccc(Br)cc2/C1=C/c1cc2c([nH]1)CCCC2 gave a remaining activity of 56.7%.
Cc1ccc(S(=O)(=O)/C=C/C#N)cc1 has a remaining activity of 92.3%.
CN1CCN(c2ccc3nc(-c4c(N)c5c(F)cccc5[nH]c4=O)[nH]c3c2)CC1 has a remaining activity of 27%.
For CCCNC(=O)Nc1ccc(Oc2ncnc3cc(OC)c(OC)cc23)cc1Cl, the remaining activity was 37%.
The remaining activity of COc1ccc(COc2ccc(Cc3cnc(N)nc3N)cc2OC)cc1 is reported as 104%.
For c1ccc(-c2n[nH]c3c2oc2ccccc23)cc1, the remaining activity was 50.8%.
With COc1ccc2c(c1)c(C1=C(c3c[nH]c4ccccc34)C(=O)NC1=O)cn2CCCN(C)C the remaining activity was 88.5%.
O=c1cc(N2CCOCC2)oc2c(-c3ccccc3)cccc12 gave a remaining activity of 99.6%.
For O=C1Cc2c([nH]c3ccc(Br)cc23)-c2ccccc2N1, the remaining activity was 84.3%.
c1ccc2c(-c3ccncc3)c[nH]c2c1 has a remaining activity of 95.9%.

Set 2
Target: Beta-1 adrenergic receptor (ADRB1, Homo sapiens, UniProt P08588)
Sequence of UniProt P08588 (whole entry, looked up): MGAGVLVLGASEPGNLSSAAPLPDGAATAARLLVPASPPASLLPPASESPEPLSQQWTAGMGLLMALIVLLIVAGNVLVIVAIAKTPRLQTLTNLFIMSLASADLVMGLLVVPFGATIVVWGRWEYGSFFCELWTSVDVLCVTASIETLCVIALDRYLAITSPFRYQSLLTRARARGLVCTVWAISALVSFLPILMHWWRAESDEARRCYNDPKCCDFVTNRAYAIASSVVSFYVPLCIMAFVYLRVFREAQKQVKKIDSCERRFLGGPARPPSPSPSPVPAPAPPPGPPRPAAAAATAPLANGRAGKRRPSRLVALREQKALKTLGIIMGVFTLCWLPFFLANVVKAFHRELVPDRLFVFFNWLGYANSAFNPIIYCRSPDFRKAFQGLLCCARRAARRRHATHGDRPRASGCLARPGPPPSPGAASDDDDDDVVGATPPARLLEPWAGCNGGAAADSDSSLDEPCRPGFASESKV
Mode: agonist
For CC(CCc1ccccc1)NCC(O)c1ccc(O)c(C(N)=O)c1 (stereo not shown), the Emax was 96.5%.
With CCCCCCCCNCC(O)COc1ccc(SC(C)C)cc1 (stereo not shown) the Emax was 44%.
Cc1cc2c(OCC(CNC(C)(C)C)OC(=O)c3ccccc3)cccc2[nH]1 (stereo not shown) gave an Emax of 113%.
For Clc1ccc2c(c1)N=C(N1CCNCC1)c1ccccc1N2, the Emax was 73.8%.
O=C(O)Cc1ccc(OCCNC[C@H](O)c2ccccc2)cc1 gave an Emax of 89.7%.
The Emax of CC(C)(CO)NCC(O)c1ccccc1 (stereo not shown) is reported as 90.7%.
With Oc1cc2c(c(Cl)c1O)CCNC[C@@H]2c1ccccc1 the Emax was 110%.
With COc1ccccc1N1CCN(C(=O)C[C@@H]2O[C@H](CNC(=O)c3ccccc3)[C@@H](O)[C@H]2O)CC1 the Emax was 41.2%.

Set 3
Cell line: mouse MPNST tumor cells
Technique: high-content nuclear imaging
Measured: cell number
Tested at: 10 µM
Time: 12 h
Notes: mean of 2 replicates
Relative to: plate mean
Direction: higher = more cells
The nuclei count of Cc1cc(C(C)Nc2ccccc2)c2nc(N3CCOCC3)cc(=O)n2c1 (stereo not shown) is reported as -1.99 z-score.
For O=C(O)c1c[nH]c2cc(Cl)c(-c3ccc(C4(O)CCC4)cc3)cc12, the nuclei count was -1.05 z-score.
O=C1NC(=NCc2cccs2)S/C1=C\c1ccc2ncccc2c1 gave a nuclei count of -1.93 z-score.
COc1ccc(NS(=O)(=O)c2sc3ccc(Cl)cc3c2C)cc1N1CCNCC1 gave a nuclei count of 2.88 z-score.
Oc1ccc(C2(c3ccccc3F)CCC(F)(F)CC2)cc1 has a nuclei count of -1.5 z-score.
CCOc1ccc(Oc2ccc(OCc3cc(F)ccc3F)cc2)c(N)c1 has a nuclei count of -1.45 z-score.
With CO/N=C(\C(=O)N[C@@H]1C(=O)N2C(C(=O)O)=C(COC(N)=O)CS[C@H]12)c1ccco1 the nuclei count was 0.74 z-score.
CN(C)CCOC1=Cc2ccccc2Sc2ccc(Cl)cc21 has a nuclei count of -4.81 z-score.
Cc1ccc(-c2n[nH]c3c2C(c2cccc(O)c2)N(c2ccc(C(=O)O)cc2)C3=O)cc1 (stereo not shown) gave a nuclei count of -0.193 z-score.
With Cn1c(CNc2cccc(C(=O)NCc3ccccc3C(F)(F)F)c2)nnc1-c1ccncc1 the nuclei count was -1.17 z-score.
CCCCCN(C)CCC(O)(P(=O)(O)O)P(=O)(O)O gave a nuclei count of 0.521 z-score.
C=C(NC(=O)C(=C)NC(=O)c1csc(C2=N[C@@H]3c4csc(n4)[C@H]4NC(=O)c5csc(n5)[C@H]([C@](C)(O)[C@@H](C)O)NC(=O)[C@H]5CSC(=N5)/C(=C/C)NC(=O)[C@H]([C@@H](C)O)NC(=O)c5csc(n5)[C@]3(CC2)NC(=O)[C@H](C)NC(=O)C(=C)NC(=O)[C@H](C)NC(=O)[C@H]([C@@H](C)CC)N[C@@H]2C=Cc3c([C@H](C)O)cc(nc3[C@H]2O)C(=O)O[C@@H]4C)n1)C(N)=O has a nuclei count of -3.77 z-score.
C[C@H](Cc1cc2c(c(C(N)=O)c1)N(CCCO)CC2)NCCOc1ccccc1OCC(F)(F)F gave a nuclei count of 0.711 z-score and 0.4 z-score.
For O=C(Nc1ccc(Oc2ccc(Cl)cn2)c(Cl)c1)c1ccccn1, the nuclei count was 1.16 z-score.
With Cc1onc(-c2ccccc2)c1C(=O)N[C@@H]1C(=O)N2[C@@H]1SC(C)(C)[C@@H]2C(=O)O the nuclei count was 0.0323 z-score.
For N#CN=C(NCCCCCCOc1ccc(Cl)cc1)Nc1ccncc1, the nuclei count was 0.922 z-score.

Set 4
Compound: C[C@H](c1cccc(C#N)c1)n1cc(Cl)cc(C(N)=O)c1=N
Read-out: cell-free assay
Technique: competition with immobilised ligand
Tested at: 1 µM
For Calcium/calmodulin-dependent protein kinase kinase 1 (CAMKK1, Homo sapiens, UniProt Q8N5S9): remaining binding read 87%.
Hepatocyte growth factor receptor (MET, Homo sapiens, UniProt P08581) — remaining binding: 100%.
For Fibroblast growth factor receptor 2 (FGFR2, Homo sapiens, UniProt P21802): remaining binding read 43%.
Serine/threonine-protein kinase PAK 1 (PAK1, Homo sapiens, UniProt Q13153) — remaining binding: 100%.
The remaining binding was 100% (Serine/threonine-protein kinase tousled-like 2 (TLK2, Homo sapiens, UniProt Q86UE8)).
For RAC-alpha serine/threonine-protein kinase (AKT1, Homo sapiens, UniProt P31749): remaining binding read 100%.
The remaining binding was 100% (Serine/threonine-protein kinase Nek1 (NEK1, Homo sapiens, UniProt Q96PY6)).
The remaining binding was 73% (Dual specificity mitogen-activated protein kinase kinase 3 (MAP2K3, Homo sapiens, UniProt P46734)).
The remaining binding was 53% (Tyrosine-protein kinase Fes/Fps (FES, Homo sapiens, UniProt P07332)).
5'-AMP-activated protein kinase catalytic subunit alpha-1 (PRKAA1, Homo sapiens, UniProt Q13131) — remaining binding: 92%.
Wee1-like protein kinase (WEE1, Homo sapiens, UniProt P30291) — remaining binding: 100%.
It gave 100% for remaining binding (Protein kinase C eta type (PRKCH, Homo sapiens, UniProt P24723)).
It gave 100% for remaining binding (Casein kinase I isoform delta (CSNK1D, Homo sapiens, UniProt P48730)).
The remaining binding was 97% (Ephrin type-A receptor 1 (EPHA1, Homo sapiens, UniProt P21709)).
Rhodopsin kinase GRK1 (GRK1, Homo sapiens, UniProt Q15835) — remaining binding: 74%.
Mitogen-activated protein kinase kinase kinase 7 (MAP3K7, Homo sapiens, UniProt O43318) — remaining binding: 77%.
The remaining binding was 80% (Vascular endothelial growth factor receptor 3 (FLT4, Homo sapiens, UniProt P35916)).
It gave 97% for remaining binding (Serine/threonine-protein kinase MARK1 (MARK1, Homo sapiens, UniProt Q9P0L2)).

A few entries again (set 1):
The remaining activity of O=C(c1cc2cc(O)ccc2[nH]1)c1cc2cc(O)ccc2[nH]1 is reported as 24.2%.
For CCCCc1c(-c2ccc(OC)cc2)[nH]c2nccnc12, the remaining activity was 64.5%.
For O=C1NC(=O)c2c1c1c3ccccc3[nH]c1n1cncc21, the remaining activity was 25.2%.
With O=Nc1c(-c2c(O)[nH]c3cc(Br)ccc23)[nH]c2ccccc12 the remaining activity was 39.1%.
O=C1Nc2ccc(Br)cc2/C1=C/c1cc2c([nH]1)CCCC2 gave a remaining activity of 56.7%.
Cc1ccc(S(=O)(=O)/C=C/C#N)cc1 has a remaining activity of 92.3%.
CN1CCN(c2ccc3nc(-c4c(N)c5c(F)cccc5[nH]c4=O)[nH]c3c2)CC1 has a remaining activity of 27%.
For CCCNC(=O)Nc1ccc(Oc2ncnc3cc(OC)c(OC)cc23)cc1Cl, the remaining activity was 37%.
The remaining activity of COc1ccc(COc2ccc(Cc3cnc(N)nc3N)cc2OC)cc1 is reported as 104%.
